# Earlier results that unrelated publications cite.
# Lines come from different studies, so protocols differ. ± marks the error that the study gave.
SMILES,tested on,test,system,setting,measurement,value
C=CCc1cc(OC)c(OC)c(OC)c1OC,A549,cell growth,,,IC50,122 µM
[Cl][Au-][P+](c1ccccc1)(c1ccccc1)c1cc[cH-]c1.[Cl][Au-][P+](c1ccccc1)(c1ccccc1)c1cc[cH-]c1.[Cl][Ti+2][Cl],DU-145,cell growth,,24 h,IC50,27.3 µM
CC1=C(C)C(=O)OC(C(C)(O)C2(O)CCC3(O)C4CC5OC56C(O)C=CC(=O)C6(C)C4CCC32C)C1 (stereo not drawn),Hep3B,cell growth,,,IC50,0.2 µM
CN[C@H](CC(C)C)C(=O)N[C@H]1C(=O)N[C@@H](CC(N)=O)C(=O)N[C@H]2C(=O)N[C@H]3C(=O)N[C@H](C(=O)N[C@H](C(=O)O)c4cc(O)cc(O)c4-c4cc3ccc4O)[C@H](O)c3ccc(c(Cl)c3)Oc3cc2cc(c3O[C@@H]2O[C@H](CO)[C@@H](O)[C@H](O)[C@H]2O[C@H]2C[C@](C)(NCc3ccc(-c4ccc(Cl)cc4)cc3)[C@H](O)[C@H](C)O2)Oc2ccc(cc2Cl)[C@H]1O,,,"mouse, plasma","intravenous, 10 mg/kg",Tmax,4.98 min
CC[C@H](C)[C@H](NC(=O)[C@H](CCCCN)NC(=O)[C@H](CCCCN)NC(=O)[C@H](Cc1c[nH]c2ccccc12)NC(=O)[C@H](CC(N)=O)NC(=O)[C@@H](N)C(C)C)C(=O)N[C@@H](CC(C)C)C(=O)NCC(=O)N[C@@H](CCCCN)C(=O)N[C@H](C(=O)N[C@H](C(=O)N[C@@H](CCCCN)C(=O)N[C@H](C(=O)N[C@H](C(=O)N[C@@H](CCCCN)C(N)=O)C(C)C)C(C)C)[C@@H](C)CC)[C@@H](C)CC,eukaryotic cells,cytotoxicity,,,IC50,4.5 to 15 µM
F[P-](F)(F)(F)(F)F.NCCN.[Cl][Ru+].c1ccc(-c2ccccc2)cc1,HBL-100,,,,IC50,54 µM
N#CC1=C(N)Oc2c(c(=O)oc3ccccc23)C1c1ccc(-n2nnc3ccccc32)cc1 (stereo not drawn),MCF7,cell growth,,,IC50,12.5 ± 2.72 µM
CCCCCCCC(=O)NCC(=O)N[C@@H](C)C(=O)N[C@@H](CC(C)C)C(=O)N[C@](C)(CC)C(=O)N[C@@H](C)C(=O)N[C@H](C(=O)N[C@H](CO)CC(C)C)[C@@H](C)CC,MDA-MB-231,"cell viability, MTT",,,IC50,5 µM
CC1=C(C)C(=O)OC(C(C)(O)C2(O)CCC3(O)C4CC5OC56CC=CC(=O)C6(C)C4CCC32C)C1 (stereo not drawn),MDA-MB-231,cell growth,,,IC50,0.97 µM
O=C(OCC[18F])C1C2CCC(CC1c1ccc(/C=C\I)cc1)N2 (stereo not drawn),SERT,HRRT PET,"awake rhesus monkey, putamen",,time to peak uptake,85 min
C#CCN[C@@H]1C=C[C@]2(O[C@H]([C@@H](CC)C(=O)[C@@H](C)[C@@H](O)[C@H](C)[C@@H]3O[C@@H]([C@@H](CC)C(=O)O)CC[C@@H]3C)[C@@H](C)C[C@H]2C)O[C@@]12CC[C@@](C)([C@H]1CC[C@](O)(CC)[C@H](C)O1)O2,HMLER CD24 low/CD44 high,cell viability,,,IC50,~0.1 µM
CC(=O)C[Se]C(=O)c1ccc(Cl)cc1,MCF7,,,,IC50,1.5 µM

# Excerpt of the above:
SMILES,tested on,test,system,setting,measurement,value
[Cl][Au-][P+](c1ccccc1)(c1ccccc1)c1cc[cH-]c1.[Cl][Au-][P+](c1ccccc1)(c1ccccc1)c1cc[cH-]c1.[Cl][Ti+2][Cl],DU-145,cell growth,,24 h,IC50,27.3 µM
CN[C@H](CC(C)C)C(=O)N[C@H]1C(=O)N[C@@H](CC(N)=O)C(=O)N[C@H]2C(=O)N[C@H]3C(=O)N[C@H](C(=O)N[C@H](C(=O)O)c4cc(O)cc(O)c4-c4cc3ccc4O)[C@H](O)c3ccc(c(Cl)c3)Oc3cc2cc(c3O[C@@H]2O[C@H](CO)[C@@H](O)[C@H](O)[C@H]2O[C@H]2C[C@](C)(NCc3ccc(-c4ccc(Cl)cc4)cc3)[C@H](O)[C@H](C)O2)Oc2ccc(cc2Cl)[C@H]1O,,,"mouse, plasma","intravenous, 10 mg/kg",Tmax,4.98 min
